Assay results from different studies.
Compare with care: the assays were run in different laboratories. Numbers after ± are the reported error. In brackets after ≈: the same amount, converted by molar mass.
Organism: Mycobacterium tuberculosis
Strain: H37Rv

Compound | test | test system | conditions | how to read | quantity | value
CCCC/C=C/C(=O)N[C@@H](Cc1cc(F)cc(F)c1)C(=O)N[C@@H](COC(=O)[C@@H]1CCCN1C(C)=O)C(=O)OC |  |  | concentration not given, with: 50 µg/mL verapamil | relative to: without verapamil | potentiation by verapamil | 16 fold
NC[C@H]1OB(O)c2c(OCCO)cccc21 | Alamar blue |  |  |  | MIC | 0.79 µM (≈ 0.176 µg/mL)
COC(=O)C(O)=CC(=O)c1ccccc1Br | MABA |  | dextrose carbon source |  | MIC99 | 16 µM (≈ 4.56 µg/mL)
CCCCCCCCCC1N=C(N)N=C(N)N1c1ccc(Cl)cc1.Cl (racemic) | microplate alamar blue |  | 7H12 medium |  | MIC90 | 1.4 µM
O=C(OCc1ccccc1)C(O)=CC(=O)c1ccccc1Br | MABA |  | acetate carbon source |  | MIC99 | < 1 µM
CCCC/C=C/C(=O)N[C@@H](Cc1cc(F)cc(F)c1)C(=O)OC |  |  | concentration not given |  | antitubercular activity | inactive
[2H]c1c(C([2H])([2H])[2H])c([2H])n2c(C(=O)NCc3cccc(N(C)C)c3)c(C)nc2c1[2H] | MABA | 7H12 medium |  |  | MIC | 0.111 ± 0.036 µM (≈ 0.0365 µg/mL)
Cc1ccc(F)c(C(=O)C=C(O)C(=O)OCc2ccccc2)c1Cl | MABA |  | dextrose carbon source |  | MIC99 | 2 µM (≈ 0.698 µg/mL)
CCCCCCCCCCCC1N=C(N)N=C(N)N1c1ccc(Cl)cc1.Cl (racemic) | microplate alamar blue |  | GAST medium, glycerol carbon source |  | MIC90 | 1.3 µM
[2H]c1c(C([2H])([2H])[2H])c([2H])n2c(C(=O)NCc3ccc(C(C)(C)C)cc3)c(C)nc2c1[2H] | MABA | GAS medium |  |  | MIC | 0.0005 µM
CCCCCCC1N=C(N)N=C(N)N1c1ccc(Cl)cc1.Cl (racemic) | microplate alamar blue |  | 7H12 medium |  | MIC90 | 5.5 µM
Cc1ccc2nc(C)c(C(=O)NCc3ccc(C(F)(F)F)cc3)n2c1 | MABA | GAS medium |  |  | MIC | 0.0113 ± 0.0025 µM (≈ 0.00392 µg/mL)
